Assay results gathered from unrelated publications.
A part holds a random share of what one study measured. Substitutions count along the parent as printed.

Sample 1 — technique: RNA Bind-n-Seq; form: RNA; matrix: in vitro; tested at: not given; baseline: input RNA pool; direction: higher = stronger binding
Target: RING finger protein unkempt homolog, zinc fingers 1-6, GST-SBP tag (UNK, Homo sapiens, UniProt Q9C0B0, residues 30-357)
Setting: RNA with constant flanks, human and mouse sites, ends assumed
Shared flanks, not repeated: GGGAGUUCUACAGUCCGACGAUC … CAACAGAGGAUUGAGCAUCA
Construct (chain): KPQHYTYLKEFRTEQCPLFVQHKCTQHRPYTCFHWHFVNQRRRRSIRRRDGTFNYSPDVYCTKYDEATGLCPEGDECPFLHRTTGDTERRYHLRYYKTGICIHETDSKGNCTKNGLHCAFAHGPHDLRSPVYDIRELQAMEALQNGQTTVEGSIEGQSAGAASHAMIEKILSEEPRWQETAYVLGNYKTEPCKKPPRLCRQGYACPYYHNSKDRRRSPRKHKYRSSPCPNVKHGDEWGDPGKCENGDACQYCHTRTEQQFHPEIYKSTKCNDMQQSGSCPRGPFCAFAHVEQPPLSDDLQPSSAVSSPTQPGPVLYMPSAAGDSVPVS
Sequence	bound/input enrichment
CCUCCCGGCCUCCUCUUGCCAGAUCUGCUCUGAAAAACUGCUCAAUGAAGCUGAUUUUUGGUUGUUUCUGUCACAGGACUCAGGGUGACAGAAAUCAAUAAAUAGAAUGCAAGUACUGCC	0.286 ratio
AAAGAUGCCUUAAGCCAUUUUGUAAUUGCAGGAGCACUCCUGUAGGAGGCCUGCUGAUGGCAUUUCAGAAGUACUCUGGUGAGACUGUUCAGGAAAGAAAACAGAAGGAUCGAAAGGCAC	0.186 ratio
CCUCCACCAAAUGCAGAUCCUAAUAUGAAGUUAUUUACAAUUCGUGGCACUCCACAACAGAUAGACUAUGCUCGGCAACUCAUAGAAGAAAAGAUUGGUGGCCCAGUAAAUCCUUUAGGG	2.26 ratio
UCUGUUCUUUUGGAUGAGAUAUUAAAGGAUCCAGAACAUCCAAACAAGGAUUACCUAAUUAACUUUGAGAUUCGGUCUCUGCGAGAUAGCCGAGCACUGAUUGAGAAGGUUGGAAUUAAA	0.13 ratio
GAUACAGUAAUUAUGAAUCCUCCCUUUGGGACCAAAAAUAAUAAAGGGACAGAUAUGGCUUUUCUGAAGACUGCUUUGGGAAUGGCAAGAACAGCAGUAUAUUCUUUACACAAGUCCUCA	0.296 ratio
GAAGUUUGUAUCAACCCAUACCACUAUAAGAGAGUGGAGAGUCCAGUCUUACCUCCAGUAUUAGUGCCUCGUCAUAAUGAAUUCAAUCCACAACACAGCCUUCUGGUUCAGUUUAGGAAC	2.92 ratio
ACAAGCUUAUCUCCUCUCCCUACCCUAAGCAACUCCUCUUUAUCUGAGCUAAGGCUUUUGAUCGUGGGGACGGGGCAUUGACCAACACUGGAGGCGCCGGCUGCAACUGUUUUAUCAGAG	0.0859 ratio
UUCAAUGACACUUUUCUCUCCAUUGAACAUUUAAAGGCCAGCUUUCCUGGUCAUAAUGUCAAAGUGACUGUGAGUGACCCAGCACUCCAAAUCCCCCCUUUCAGAAUAACGUUCCCAGUA	0.637 ratio

Sample 2 — technique: protein-binding microarray; form: double-stranded DNA, one strand shown; matrix: in vitro; tested at: 250 nM; setting: 60-bp whole probe; with: salmon DNA 0.4 mg/ml; baseline: random background probes; direction: higher = stronger binding; shared flanks, not repeated: GCCTAGCAC … GTCTTGATTCGCTTGACGCTGCTG
Target: Interferon regulatory factor 7, full length, phosphomimetic (IRF7, Homo sapiens, UniProt Q92985, residues 1-503, S101K/S471D/S472D/S475D/S476D/S477D/S483D/S484D/S487D)
Residues (chain): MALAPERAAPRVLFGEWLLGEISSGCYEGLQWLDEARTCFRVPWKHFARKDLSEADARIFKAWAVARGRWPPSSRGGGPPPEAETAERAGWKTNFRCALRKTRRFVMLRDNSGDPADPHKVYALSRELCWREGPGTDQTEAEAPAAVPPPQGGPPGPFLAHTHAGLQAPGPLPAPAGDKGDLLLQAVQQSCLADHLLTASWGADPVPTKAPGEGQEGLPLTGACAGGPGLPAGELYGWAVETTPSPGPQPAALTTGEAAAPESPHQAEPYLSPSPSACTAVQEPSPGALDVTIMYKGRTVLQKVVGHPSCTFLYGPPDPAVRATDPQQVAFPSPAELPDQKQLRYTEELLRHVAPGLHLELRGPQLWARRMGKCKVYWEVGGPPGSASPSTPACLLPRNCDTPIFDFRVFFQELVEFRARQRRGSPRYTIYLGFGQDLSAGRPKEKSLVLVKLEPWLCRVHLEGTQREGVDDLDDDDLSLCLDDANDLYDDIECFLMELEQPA
Sequence	log fluorescence
TCAAATATATGTATATAACTGTGCTAG	0.143 z-score
GACGGTTTAGGTATCGGGACGTGCTAG	0.267 z-score
TTAGGTTTCCTATTGCTTTAGTGCTAG	3.43 z-score
TTTGGTTTCGACTATCGGTTAGTGCTA	7.22 z-score
CACGGTATCGACACTGGGGACGTGCTA	-0.108 z-score
TCCTGTGACGTTAAGGTCTCGTGCTAG	0.123 z-score
TATCATTTAATTATATGGCTGTGCTAG	-0.0395 z-score
TCAGATTTTCCCATGAGACTGTGCTAG	1.02 z-score
TCATGTTTGGTCCTGATACTGTGCTAG	0.586 z-score
TCAAAACTCACTCATGGCACTGTGCTA	-0.541 z-score
TATGAAATGGAAGTTTAGGGGTGCTAG	-0.299 z-score
TCATGGGTCTTGTCTGGAACTGTGCTA	-0.78 z-score
TTAGATCTCAAACTGGATTAGTGCTAG	0.206 z-score
TTAGGTATCCACTTTCGGTTAGTGCTA	2.25 z-score
TGAGATTTCGGGTTTCGATTAGTGCTA	7.71 z-score
TTAGATATCAGTGTCGATTAGTGCTAG	-0.138 z-score
ATGCTTCTGTATTCATGAAGGTGCTAG	0.553 z-score
GACTATTTCGGGTTTCGAGACGTGCTA	4.92 z-score
TCTTTTTGCTTTCTTTTATGGTGCTAG	2.24 z-score

Sample 3 — target: CCNB1, cyclin fold, Cln2 fusion (human); technique: yeast growth competition, sequencing; matrix: yeast; setting: weak parent motif; baseline: not given; direction: higher = stronger binding
Starting sequence: CDC25A docking peptide (human); PPHRRRLLFACSP
Variant	normalised enrichment score
PPHRRRLLNACSP [F9N]	0.406
PPHRKRLLFACSP [R5K]	0.73
PPHHRRLLFACSP [R4H]	-0.134
PPHRRLLLFACSP [R6L]	0.326
PPHRRRLYFACSP [L8Y]	1.04
PPHRRRLMFACSP [L8M]	0.41
PPHRRRLLLACSP [F9L]	0.573
PPHRRRLLIACSP [F9I]	0.72
PPHRRRLLFACSM [P13M]	0.308
PPHRRRLLFACVP [S12V]	1.05
PPHRRRLLFNCSP [A10N]	-0.0057
PPHRRRLLFQCSP [A10Q]	0.698
PPHRRRLLQACSP [F9Q]	-0.103
PPHRRRLIFACSP [L8I]	0.556
PPHRRRLLFSCSP [A10S]	0.546
IPHRRRLLFACSP [P1I]	0.849
PPHRRRLNFACSP [L8N]	0.521
PGHRRRLLFACSP [P2G]	0.88
PPHRRRLLFACLP [S12L]	1.12
PPHRRRLLFACSD [P13D]	1.23
PPHRRRLLFLCSP [A10L]	0.136
PPHRRRLLFALSP [C11L]	0.432
PPHRRRLLFAYSP [C11Y]	0.459
PEHRRRLLFACSP [P2E]	1.04
PPHRRPLLFACSP [R6P]	-0.678

Sample 4 — technique: universal PBM; form: double-stranded DNA, one strand shown; matrix: in vitro; tested at: 600 nM; direction: higher = stronger binding
Target: Sal-like protein 4, full length isoform A (SALL4, Homo sapiens, UniProt Q9UJQ4, residues 1-1053)
Sequence of UniProt Q9UJQ4 (whole entry, looked up): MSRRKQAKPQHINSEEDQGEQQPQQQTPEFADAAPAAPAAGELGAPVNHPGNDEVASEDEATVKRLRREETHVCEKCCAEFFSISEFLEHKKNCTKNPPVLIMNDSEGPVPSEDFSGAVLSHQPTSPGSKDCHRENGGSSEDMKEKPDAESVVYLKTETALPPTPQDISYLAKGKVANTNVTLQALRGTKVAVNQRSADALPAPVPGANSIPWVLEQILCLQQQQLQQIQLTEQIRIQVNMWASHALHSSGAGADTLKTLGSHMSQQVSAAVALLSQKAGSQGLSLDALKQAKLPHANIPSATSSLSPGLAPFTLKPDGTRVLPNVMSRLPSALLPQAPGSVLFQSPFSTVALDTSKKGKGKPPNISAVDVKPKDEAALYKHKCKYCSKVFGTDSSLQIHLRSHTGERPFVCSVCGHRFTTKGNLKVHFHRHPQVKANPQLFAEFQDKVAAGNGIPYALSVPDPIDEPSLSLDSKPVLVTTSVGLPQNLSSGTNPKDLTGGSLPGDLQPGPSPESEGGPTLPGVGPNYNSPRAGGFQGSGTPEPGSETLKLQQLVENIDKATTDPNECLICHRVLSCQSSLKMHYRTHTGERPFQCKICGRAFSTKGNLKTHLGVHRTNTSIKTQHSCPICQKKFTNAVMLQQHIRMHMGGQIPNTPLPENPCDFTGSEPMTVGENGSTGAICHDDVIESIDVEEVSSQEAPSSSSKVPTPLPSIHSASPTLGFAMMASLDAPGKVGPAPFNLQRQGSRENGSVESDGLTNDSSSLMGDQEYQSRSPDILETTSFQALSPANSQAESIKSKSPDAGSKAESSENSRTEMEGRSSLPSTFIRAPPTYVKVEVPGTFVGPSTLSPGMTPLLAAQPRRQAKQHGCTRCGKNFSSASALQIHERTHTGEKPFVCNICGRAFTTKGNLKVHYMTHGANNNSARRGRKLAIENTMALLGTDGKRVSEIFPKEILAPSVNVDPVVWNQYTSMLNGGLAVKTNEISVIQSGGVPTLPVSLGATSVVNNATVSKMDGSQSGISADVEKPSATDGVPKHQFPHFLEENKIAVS
Setting: 8-mer, flanks averaged, mean of replicates
Sequence	E-score
AAGGATCA	0.0535
ATCGGCCC	-0.251
TCGCTTAA	0.112
TCATAGAA	0.252
GGACGCAC	-0.277
ATCGAACA	0.0183
CCAGCAAG	-0.0686
TAATGCTA	0.234
AACATACC	0.137
CGAGGAAA	-0.00509
AATTGCCT	0.201
GAAGACCA	-0.211
CATCGCCG	-0.175
CGGGATTA	-0.0198
GCCCGTCC	-0.344
ATCGGTAA	0.168
ATCAAGCC	-0.0541
ATACGGAT	0.112
AACCGCAA	-0.0493
AGGGACAG	-0.157
GGTACGCA	0.0232
CAGGGGTC	-0.256
CCTTCTAC	-0.0959
GATCATAA	0.347
CTACGCAG	-0.198
